# Measured values of several laboratories.
# Each numbered part is a random draw from the data of one study; scales do not carry over between parts. Substitutions count along the parent as printed.

# Sample 1
# Target: ABI1, truncated, D143A, DHFR fusion (Arabidopsis thaliana)
# Method: DHFR PCA, deep sequencing
# Matrix: yeast
# Notes: methotrexate growth selection, single substitutions
# Added: (+)-ABA 2500 µM
# Relative to: wild-type fitted maximum
# Direction: higher = stronger binding
# Starting sequence: PYL1, truncated, DHFR fusion (Arabidopsis thaliana); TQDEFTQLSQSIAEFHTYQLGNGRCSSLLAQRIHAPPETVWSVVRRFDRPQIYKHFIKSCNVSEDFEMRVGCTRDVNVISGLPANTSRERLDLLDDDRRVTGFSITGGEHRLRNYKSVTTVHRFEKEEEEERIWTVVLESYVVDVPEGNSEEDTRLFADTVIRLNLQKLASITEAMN
Variant,relative binding score [%]
S80V,61.1
Q7E,101
R88S,99
D97W,93.1

# Sample 2
# Target: CCNB2, cyclin fold, Cln2 fusion (human)
# Method: yeast growth competition, sequencing
# Matrix: yeast
# Notes: weak parent motif
# Relative to: not given
# Direction: higher = stronger binding
# Starting sequence: CDC25A docking peptide (human); PPHRRRLLFACSP
Variant,normalised enrichment score
SPHRRRLLFACSP [P1S],0.324
PPHRRRLLFECSP [A10E],0.135
PPHRRRHLFACSP [L7H],0.35
PWHRRRLLFACSP [P2W],0.571

# Sample 3
# Target: Fragile X messenger ribonucleoprotein 1, C-terminal low-complexity region (Fmr1, Mus musculus, UniProt P35922)
# Method: RNA Bind-n-Seq
# Form: RNA
# Matrix: in vitro
# Tested at: 200 nM
# Notes: whole 134-nt RNA, ends assumed
# Added: 150 mM KCl
# Relative to: input library
# Direction: higher = stronger binding
Strand,log2 enrichment
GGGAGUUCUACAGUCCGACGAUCUGGGAGGUUGAUUUUGUUUAUUUUUUUAGCUCAUUUCCAGGGGUGGGAAUUUUUUUUUAAUAUGUGUCAUGAAUAAAGUUGUUUUUGAAAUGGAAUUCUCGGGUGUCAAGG,-0.0103
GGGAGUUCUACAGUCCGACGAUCAAGUCCUGUGCUACACAUCGUAUGUACCGAAUCGGAGGAAAAAAAGGUUUUUUUGGAAAGUAUUAUGUUACGCCGUUCGGAUCUGCACUUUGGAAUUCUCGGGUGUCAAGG,-1.11
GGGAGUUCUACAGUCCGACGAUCUAACUUUAGAGGAGGAUCUGAUGGAUAUGGCAGUGGACGUGGAUUUGGGGAUGGCGAUAAUGGGUAUGGAGGAGGACCUGGAGGUGGCAAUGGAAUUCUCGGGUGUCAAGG,0.151
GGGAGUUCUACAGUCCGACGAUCCACAGACAACACGCACCCACACAGACACAGAGGGAAGGGGUUGGGAUGGGGACAGGGUGCACAGCACGGCGGGGUAGGACCCCAGCCCCUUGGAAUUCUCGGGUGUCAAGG,1.25
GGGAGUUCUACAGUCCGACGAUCCUGUGCUACACAUCGUAUGUACCGAAUCGGGGUUUGGGGAAAAAAAGGGGAAAAAAAGGGGAAAGUAUUAUGUUACGCCGUUCGGAUCUGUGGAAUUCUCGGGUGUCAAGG,-0.349
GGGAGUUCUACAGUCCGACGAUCGCAGGAAGUAAAAACAAAUGGAAAUGCUUCGGAUAGUGGCAGGGGUGGAAAUUGCUAAGGAAAGGGUGGGAUGGGAGUGGGUAAAGAGUUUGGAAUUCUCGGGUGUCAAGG,0.346
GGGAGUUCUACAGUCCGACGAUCCUCAAGUCCUGUGCUACACAUCGUAUGUACCGAAUCGGGCCGGCCGGGCCGGGAAAGUAUUAUGUUACGCCGUUCGGAUCUGCACUUCCAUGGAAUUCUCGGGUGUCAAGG,-0.123
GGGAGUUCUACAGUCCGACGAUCAGUCCUGUGCUACACAUCGUAUGUACCGAAUCGGGGUGGGGUGGGGAAAAAAAGGGGAAAGUAUUAUGUUACGCCGUUCGGAUCUGCACUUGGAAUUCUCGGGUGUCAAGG,0.772

# Other studies, line by line
Molecule,target,test,test system,conditions,how to read,measurement,value
"PhoQ, residues 284 288 289 292 302 303 NLCILV","PhoP, residues 12 14 15 18 19 DLLYY (Escherichia coli, UniProt P23836)","Sort-seq, item: YFP reporter",E. coli,"PhoQ-PhoP variant library, added: 10 µM Mg2+","relative to: high Mg2+ state, higher = stronger signaling",fold induction,1.46
